Experimental data of several laboratories.
Each line is one published result; not all experiments were run side by side. ± gives the spread as reported.

| Compound | assay | system | conditions | measurement | value |
| --- | --- | --- | --- | --- | --- |
| C[C@@H]1CCO[C@H]2Cn3cc(C(=O)NCc4ccc(F)cc4F)c(=O)c(O)c3C(=O)N12 | population PK model | children |  | apparent clearance (CL/F) | 1.03 L/h |
| Cc1cc(/C=C/C#N)cc(C)c1Nc1ccnc(Nc2ccc(C#N)cc2)n1 |  | octanol-water | room temperature | apparent logP | 1.22 ± 0.25 |
| COc1cc(Nc2ncc3c(n2)-c2ccc(Cl)cc2C(c2c(F)cccc2OC)=NC3)ccc1C(=O)O | population PK modelling | cancer patients, plasma | oral, dose not given | apparent peripheral volume (V2/F) | 27.4 L |
| N[C@@H](CC(=O)N1CCc2c(nc(C(F)(F)F)nc2C(F)(F)F)C1)CN1CC(F)(F)CCC1=O |  | healthy Korean adults, fasted, plasma | oral, 50 mg single dose, fixed-dose combination tablet, added: enavogliflozin 0.3 mg | apparent clearance CL/F | 36400 ± 6620 mL/h |
| CC1(C)CCC(CN2CCN(c3ccc(C(=O)NS(=O)(=O)c4ccc(NCC5CCOCC5)c([N+](=O)[O-])c4)c(Oc4cnc5[nH]ccc5c4)c3)CC2)=C(c2ccc(Cl)cc2)C1 | final population PK model | AML patients, plasma | oral, dose not given | apparent peripheral volume (V3/F) | 115 L |
| CCCCCCCCCCCCCCCC(=O)N[C@@H](CCC(=O)NCCCC[C@H](NC(=O)[C@H](C)NC(=O)[C@H](C)NC(=O)[C@H](CCC(N)=O)NC(=O)CNC(=O)[C@H](CCC(=O)O)NC(=O)[C@H](CC(C)C)NC(=O)[C@H](Cc1ccc(O)cc1)NC(=O)[C@H](CO)NC(=O)[C@H](CO)NC(=O)[C@@H](NC(=O)[C@H](CC(=O)O)NC(=O)[C@H](CO)NC(=O)[C@@H](NC(=O)[C@H](Cc1ccccc1)NC(=O)[C@@H](NC(=O)CNC(=O)[C@H](CCC(=O)O)NC(=O)[C@H](C)NC(=O)[C@@H](N)Cc1cnc[nH]1)[C@@H](C)O)[C@@H](C)O)C(C)C)C(=O)N[C@@H](CCC(=O)O)C(=O)N[C@@H](Cc1ccccc1)C(=O)N[C@H](C(=O)N[C@@H](C)C(=O)N[C@@H](Cc1c[nH]c2ccccc12)C(=O)N[C@@H](CC(C)C)C(=O)N[C@H](C(=O)N[C@@H](CCCNC(=N)N)C(=O)NCC(=O)N[C@@H](CCCNC(=N)N)C(=O)NCC(=O)O)C(C)C)[C@@H](C)CC)C(=O)O | population PK, base model | adult and pediatric type 2 diabetes, plasma | subcutaneous, dose not given | apparent volume of distribution (V/F) | 18.1 L |
| COc1cc(N2CCC(N3CCN(C)CC3)CC2)ccc1Nc1ncc(Cl)c(Nc2ccccc2P(C)(C)=O)n1 |  | healthy subjects | oral | apparent oral clearance | 13.5 L/h |
| CN1CC[C@@H](NC(=O)Nc2ccc(C#N)cc2)C[C@@H]1c1nc2ccccc2[nH]1 | population PK model | cancer patients | oral | apparent clearance | 5.77 L/h |
| Cc1c(C(=O)O)ccc2c3n(nc12)[C@@H]1[C@H](C3)N(CC2CC2)[C@@]2(C(=O)Nc3cc(Cl)ccc32)[C@H]1c1cccc(Cl)c1F |  | cancer patients, plasma | oral, 45 mg every 3 weeks, geometric mean | apparent clearance CL/F | 440 mL/h |
| O=C(O)c1cccc(C(=O)O)c1 |  | betaine/propylene glycol DES-water | DES mass fraction 0.50 | apparent dissolution enthalpy | 2.42 kcal/mol |
| CC#CC(=O)N1CCC[C@H]1c1nc(-c2ccc(C(=O)Nc3ccccn3)cc2)c2c(N)nccn12 | population pharmacokinetics | healthy subjects |  | apparent clearance (CL/F) | 196 L/h |
| OC[C@H]1O[C@@H](c2cc(Cc3ccc(C4CC4)cc3)c(Cl)c3c2CCO3)[C@H](O)[C@@H](O)[C@@H]1O |  | healthy Korean adults, fasted, plasma | oral, 0.3 mg single dose, separate tablets, added: co-administered drug 50 mg | apparent volume Vd/F | 152 ± 38.1 L |
| O=C(c1cccnc1-c1ccncc1)N1CCC(O)(Cc2ccccc2)CC1 | population PK model | healthy adults | oral, 300 mg | apparent oral clearance | 204 L/h |
| C=CC(=O)NC1CCN(c2ncc3ncnc(Nc4ccc(Oc5ccc6c(c5)ncn6C)c(C)c4)c3n2)CC1 |  | healthy male volunteers, plasma | oral, 60 mg, unlabelled tablet | apparent volume of distribution Vz/F | 545 L |
| CNC(=O)c1c(C)oc2cc(Oc3ncnc4cc(OC)c(OC)cc34)ccc12 | final population PK model | subject weighing 70 kg | oral, dose not given | apparent volume of distribution | 48.5 L |
